Measurements of several laboratories.
Each numbered part is a random draw from the data of one study; scales do not carry over between parts.

Set 1
Target: Prothrombin, mature alpha-thrombin (F2, Homo sapiens, UniProt P00734)
Technique: aptamer microarray, sandwich
Form: DNA with 2'F-ANA
Medium: in vitro
Tested at: 200 nM
Setting: whole 15-mer aptamer, many near background
Together with: Cy3 exosite-II aptamer, 400 nM
Reading: higher = stronger binding
Strand | mean fluorescence intensity
GGTTGGTGTGGTTGG (2'F-ANA at 2 6 7 8 11 12 14 15) | 189 a.u.
GGTTGGTGTGGTTGG (2'F-ANA at 2 3 4 5 7 9 10 13 14) | 49.7 a.u.
GGTTGGTGTGGTTGG (2'F-ANA at 3 5 10 11 14 15) | 52.5 a.u.
GGTTGGTGTGGTTGG (2'F-ANA at 1 10 11 13 14 15) | 53.9 a.u.

Set 2
Target: RNA binding protein fox-1 homolog 2, RRM domain, GST-SBP tag (RBFOX2, Homo sapiens, UniProt O43251-10, residues 100-194)
Technique: RNA Bind-n-Seq
Form: RNA
Medium: in vitro
Tested at: 365 nM
Setting: natural RNA segment, single round, ends assumed
Baseline: no-protein control
Reading: higher = stronger binding
Construct (chain): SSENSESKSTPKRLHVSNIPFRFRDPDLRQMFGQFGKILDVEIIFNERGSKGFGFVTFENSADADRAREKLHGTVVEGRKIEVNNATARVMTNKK
Strand | RBNS enrichment (R)
GGGAGUUCUACAGUCCGACGAUCUUAGCUCUCUCAGAUCCUAUCCUGUGGAAUUUAGUUAUUAUGUGUAUUUAUGUAGUAUUUCAAACAUUUCAAAAUGCUUUCAUCUAUGUUUAUCACAUUUUAAUACCACAUGGAAUUCUCGGGUGCCAA | 0.232
GGGAGUUCUACAGUCCGACGAUCGAUUGGCUCAGGUUUAAUACAUCUGUUAUUAUAUAAUCUAGCAAAAGUUGGAUUAUAGAUUAUAACGUAGAGUUGGUUUGUAGGGCCAAAUAAUCAGAGGACAUGCAAUAUGGAAUUCUCGGGUGCCAA | 0.376
GGGAGUUCUACAGUCCGACGAUCCUGGAGCCACCGCCUCGCGGGUGCAGCAGCACAGCAGGCACGGUUCGGGGAGGGAUUCGGCAUGGCCGCGGGGUACCUUCCCAGGCCAGGGCCCUGGAGGCAACUGGCACUGGAAUUCUCGGGUGCCAA | 0.221

Set 3
Target: Histone acetyltransferase KAT6A, winged helix 2, GST fusion (KAT6A, Homo sapiens, UniProt Q92794, residues 85-181)
Technique: protein binding microarray
Form: double-stranded DNA, one strand shown
Medium: in vitro
Tested at: not given
Setting: 8-mer, flanks averaged, mean of 2 arrays, mostly near background
Baseline: not given
Reading: higher = stronger binding
Residues (chain): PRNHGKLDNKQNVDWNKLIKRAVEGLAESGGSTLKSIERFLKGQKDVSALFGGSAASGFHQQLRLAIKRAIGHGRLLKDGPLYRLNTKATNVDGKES
Strand | E-score
GGCCTACC | -0.0868
ATTCTTAC | 0.0163
CATCCTCA | -0.119
AATCCGGT | 0.194

Mixed results
Substance | target | assay | system | conditions | scale | endpoint | result
PhoQ, residues 284 288 289 292 302 303 ALVSVA | PhoP, residues 12 14 15 18 19 NQCAL (Escherichia coli, UniProt P23836) | Sort-seq, measured: YFP reporter | E. coli | PhoQ-PhoP variant library, together with: 10 µM Mg2+ | baseline: high Mg2+ state, higher = stronger signaling | fold induction | 11.4

Excerpt of the above (set 3):
Strand | E-score
AATCCGGT | 0.194
